Experimental data pooled from the literature.
Each numbered part is a random draw from the data of one study; scales do not carry over between parts. Changes are numbered by the printed parent chain.

Sample 1 — technique: DHFR PCA, deep sequencing; matrix: yeast; together with: (+)-ABA 4.8 µM; reference: wild-type fitted maximum; reading: higher = stronger binding
Target: ABI1, truncated, D143A, DHFR fusion (Arabidopsis thaliana)
Setting: methotrexate growth selection, single substitutions
Starting sequence: PYL1, truncated, DHFR fusion (Arabidopsis thaliana); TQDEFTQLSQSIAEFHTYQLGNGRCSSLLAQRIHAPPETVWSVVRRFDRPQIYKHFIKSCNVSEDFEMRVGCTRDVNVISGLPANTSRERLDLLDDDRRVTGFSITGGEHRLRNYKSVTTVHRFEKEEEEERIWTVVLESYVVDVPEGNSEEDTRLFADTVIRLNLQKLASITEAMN
Variant	relative binding score [%]
Y18Q	32.1
E151I	74
R45L	0.0211
E109N	76.9
H55I	83.4
I52C	57.9
L91K	-10.6
K168P	2
L20M	64.8
R113A	67.1
A175T	69.9
E64K	79.1
E139C	66.3
N114F	-11.3
R32I	69
D159K	11.3
V161C	37.1
I52D	72.3
S80Q	-0.27

Sample 2 — technique: protein-binding microarray; form: double-stranded DNA, one strand shown; matrix: in vitro; concentration: 940 nM top; setting: 60-bp whole probe; together with: salmon DNA 0.4 mg/ml; reference: random background probes; reading: higher = stronger binding; constant ends, left off below: GCCTAGCAC … GTCTTGATTCGCTTGACGCTGCTG
Target: Interferon regulatory factor 5, full length, phosphomimetic (IRF5, Homo sapiens, UniProt Q13568-2, residues 1-514, S451D/S453D/S456D/S462D)
Strand	fitted relative affinity
TCACTTATTGCTTCCTCACTGTGCTAG	1.29 z-score
GACGGACAGGGACTGGGGACGTGCTAG	-0.405 z-score
TTAGGTTTCGGCCTGGGTTAGTGCTAG	9.94 z-score
GATGGTTTCGGGTATCGGGACGTGCTA	10.7 z-score
GACGATTTCGGGTATCGTGACGTGCTA	0.748 z-score
GACGAACTGAGTGTCGAGACGTGCTAG	-0.636 z-score
GACGAATTCGGGACTGGAGACGTGCTA	-0.316 z-score
CTTACTTCCCAATTGTCTTTGTGCTAG	1.56 z-score
TCAGCTTTACTGATGGCACTGTGCTAG	-0.5 z-score
GGCATTTTTTTTATCAATCAGTGCTAG	0.359 z-score
TTAGGTTTCCTATTGCTTTAGTGCTAG	1.43 z-score
GACGGACTAGGACTGGGGACGTGCTAG	-0.73 z-score
TTAGGTATCGGTAACGGTTAGTGCTAG	8.85 z-score
CAGGGTTTCAGATGCGTGAGGTGCTAG	1.06 z-score
GACGATATCAGTTTCGAGTCGTGCTAG	6.24 z-score
GACGGACTGGGACTGGGGATGTGCTAG	-0.299 z-score
GGGGATAAACTTAATGGATGGTGCTAG	-0.14 z-score
GATGAACTGAGTCTCGAGACGTGCTAG	0.729 z-score
GACGGTCTCGGACTGAGGACGTGCTAG	0.612 z-score
TCACTTCTATAGGCTAGAACTGTGCTA	0.0849 z-score
TGCACTCTCTACATGTGTTTGTGCTAG	1.02 z-score

Sample 3 — technique: Sort-seq; refers to: YFP reporter; matrix: E. coli; setting: PhoQ-PhoP variant library; together with: 10 µM Mg2+; reference: high Mg2+ state; reading: higher = stronger signaling
Substance: PhoQ, residues 284 288 289 292 302 303 SVTLVV
target	fold induction
PhoP, residues 12 14 15 18 19 TQAML (Escherichia coli, UniProt P23836)	17.7
PhoP, residues 12 14 15 18 19 NQCAL (Escherichia coli, UniProt P23836)	14.3
PhoP, residues 12 14 15 18 19 LHTVL (Escherichia coli, UniProt P23836)	1.81

Sample 4 — technique: RNA Bind-n-Seq; form: RNA; matrix: in vitro; concentration: 365 nM; reference: no-protein control; reading: higher = stronger binding
Target: RNA binding protein fox-1 homolog 2, RRM domain, GST-SBP tag (RBFOX2, Homo sapiens, UniProt O43251-10, residues 100-194)
Setting: natural RNA segment, single round, ends assumed
Residues (chain): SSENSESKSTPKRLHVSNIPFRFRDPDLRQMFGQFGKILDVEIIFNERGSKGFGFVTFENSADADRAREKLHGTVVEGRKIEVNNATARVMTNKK
Strand	RBNS enrichment (R)
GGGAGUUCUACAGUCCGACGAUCUGGAAAUACAAGCCAUAAAAUUCAAAAGGUGUCAAAAGACCUUGGCUUGUUUGGGGGUUUGUUCCCAUCCAUGAGUAGAGUUGACAAGAAGAAUUUAAACGGGAGUCUGAUGGAAUUCUCGGGUGCCAA	0.463
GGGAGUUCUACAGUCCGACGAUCGCUCCUGCGUGCAUCCCCGGGAUGACCAGACUCCCGGACUCCUCAGGCAGUGCCCUUUCCUCCCACUUUUCCUCCCCCAUAGCCACAGGCCUCUGCUCCUGCUCCUGCCUUGGAAUUCUCGGGUGCCAA	0.89
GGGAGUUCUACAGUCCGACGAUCAGAUCCCCCUGCCUCAGCCUCCAGAGUGCUGGGAUAAAAGGUGUGGGCCACCAAGCUAGGCUAAGAAAGAGGUUUUAAUUGUGGUUUCUUUCCUGCAGUGCUGUCCCCAAUGGAAUUCUCGGGUGCCAA	0.479
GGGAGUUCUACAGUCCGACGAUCCCGACAGUGGCGUAAACAGGAGACAUCACCCUAUACUGCGAAACUACAGAAAGGAAGACAGCUUGGCCCAGCGGGCUGAAGUUCAGAAUUCACUAGGUAGUUGUUGUUGGUGGAAUUCUCGGGUGCCAA	0.296
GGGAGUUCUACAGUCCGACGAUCGUGUGUGGGAUUACAGCCAAAGUAUACUUGUCAACAUAUACGAAGUCUCUAGUCCUAACUUUUAAAGAUCUAAGGUUCCUUGGAAGUUAUUUGAAGGCCAAGAGACCUUUUGGAAUUCUCGGGUGCCAA	0.331
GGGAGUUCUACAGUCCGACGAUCGGGGACAAAGCAAAAAGUGAUGAUAGUGGUGGAGUUAAUCUUAUCAAGAGUUGUGACAACUUCCUGAGGGAUCUAUACUUGCUUUGUGUUCUUUGUGUCAACAUGAACAAUGGAAUUCUCGGGUGCCAA	0.492
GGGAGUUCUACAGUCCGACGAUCUGCUUUAUAUUUGUAUAUACAUUUUACCUUUUAUACAGAUGUCCGAUUGUUGUCAUUUGGCUCUGCAGCUUGUUUUGUCGUCUGUGUCUGUCUGAGGAACCUGUGUGUCCUGGAAUUCUCGGGUGCCAA	0.472
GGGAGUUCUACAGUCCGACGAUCUUGCCAUCUAGAUGAGAGCUGCUCAGCCCAGGAAUCUCCCACUGUUUCCCCUGAGCAGUCUUCCUCAGGGCUCAGUGUACCCUCGGGAGACCCUGGGAGACCAAGGCAUUUGGAAUUCUCGGGUGCCAA	0.194
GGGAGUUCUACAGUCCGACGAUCAGAGAAGCUGCCUCUGUAGAGUGGCCGAUGUCACAGAGAGCCAGGCUCCAUGGGGAGCCAUCUAAGUUCUUUUCUUUUGGAAGAUUGGGUGUCUCGGAGAGUUGCCAUAUUGGAAUUCUCGGGUGCCAA	0.663
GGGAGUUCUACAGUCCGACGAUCGACACUCCAGACAUGGGAGAAGGACUUUCUGGGAACACAGAGACCAAGAGGGAGAGAGGCUUCAGAACCAGUCCUCCUUUCAUUUCAAAACCCCAGCGGGCCCUCUGGAGUGGAAUUCUCGGGUGCCAA	0.35
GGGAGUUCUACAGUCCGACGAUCUGUAUCAAUAUUUCCUAACAUGAAGCAGUCAAACAUGUAUGGCACAUACUGACCAGACGUCAGUCUGUGAUGUUUCCGCUGCAAGAAUUCAAGCAUGCUGUUAGGAAUGUUGGAAUUCUCGGGUGCCAA	6.93
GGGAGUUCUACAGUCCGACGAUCUGCUCUCUGUGCUCUGUGGUGGCUUCCAUGCACUGCUGUGGCCAUGGAGACCCAGCUCCUUGCACGGUAGCCCAGCUUUUGCCCAGACCAGUGGCCAGAUUUGGCAUCACUGGAAUUCUCGGGUGCCAA	0.384

Sample 5 — target: CCND2, cyclin fold, Cln2 fusion (human); technique: yeast growth competition, sequencing; matrix: yeast; setting: weak parent motif; reference: not given; reading: higher = stronger binding
Starting sequence: RB1 docking peptide (human); PKPLKKLRFDIEG; partner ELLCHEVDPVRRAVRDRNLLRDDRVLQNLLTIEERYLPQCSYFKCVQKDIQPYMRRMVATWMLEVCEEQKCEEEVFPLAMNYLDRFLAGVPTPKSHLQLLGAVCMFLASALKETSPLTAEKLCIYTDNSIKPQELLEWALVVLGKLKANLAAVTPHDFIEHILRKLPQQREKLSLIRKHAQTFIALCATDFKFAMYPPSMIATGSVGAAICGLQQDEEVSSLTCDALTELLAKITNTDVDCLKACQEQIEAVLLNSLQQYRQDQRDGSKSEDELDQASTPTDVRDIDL
Variant	normalised enrichment score
YKPLKKLRFDIEG [P1Y]	0.413
PKPLKKLRVDIEG [F9V]	0.196
PKPPKKLRFDIEG [L4P]	0.114
PKPLKKLRNDIEG [F9N]	0.578
PKPLKKLRWDIEG [F9W]	0.224
PKPLKKLRFDIVG [E12V]	-0.329
PKPLKELRFDIEG [K6E]	-0.165
PKPLTKLRFDIEG [K5T]	0.348
PKPLKTLRFDIEG [K6T]	0.133
PNPLKKLRFDIEG [K2N]	0.264
PKPLKKLRFDIHG [E12H]	-0.00277
PKPLKKLIFDIEG [R8I]	0.144
PKPKKKLRFDIEG [L4K]	-0.145
PKPLKKLRFDING [E12N]	0.582
PKPLKKLRFSIEG [D10S]	-0.672
PKPLKKLHFDIEG [R8H]	0.176
PKPLKKLRYDIEG [F9Y]	-0.111
PFPLKKLRFDIEG [K2F]	-0.18
PKPLKKDRFDIEG [L7D]	-0.123
PKPLKKLQFDIEG [R8Q]	-0.0565
PLPLKKLRFDIEG [K2L]	0.477

For quick reference, copied from above (sample 2):
Strand	fitted relative affinity
TTAGGTTTCCTATTGCTTTAGTGCTAG	1.43 z-score
TCACTTATTGCTTCCTCACTGTGCTAG	1.29 z-score
GACGGACTGGGACTGGGGATGTGCTAG	-0.299 z-score
GACGAATTCGGGACTGGAGACGTGCTA	-0.316 z-score
GACGGACAGGGACTGGGGACGTGCTAG	-0.405 z-score
CTTACTTCCCAATTGTCTTTGTGCTAG	1.56 z-score
GATGGTTTCGGGTATCGGGACGTGCTA	10.7 z-score
